Measured values collected from several papers.
Protocols differ between the studies behind these lines.
Target: Beta-adrenergic receptor kinase 1 (GRK2, Homo sapiens, UniProt P25098)

SMILES	assay	system	setting	how to read	endpoint	result
CNC(=O)C[C@H](Cc1ccc(C#N)cc1)NC(=O)c1cc(-c2ccc(CN[C@H](C)c3ccc(C)cc3)o2)ccc1Cl	enzyme activity, inhibitor		1 µM		activity vs control	108%
C=CC(=O)N1CCCC(n2c(=O)c3ncccc3n(Cc3ccc(Oc4ccccc4)cc3)c2=O)C1 (stereo not shown)	cell-free assay, competition with immobilised ligand		1 µM		remaining binding	16%
Cc1cnc2nc1Nc1cccc(c1)COC/C=C/COCc1cc(ccc1OCCN1CCOCC1)N2	binding, competition with immobilised ligand		0.1 µM		remaining binding	83%
CCn1cc(C(=O)O)c(=O)c2c(N)c(F)c(NC3CCCCC3)cc21	kinase activity		0.1 µM, together with: ATP at Km		inhibition	6%
C=CC(=O)N1Cc2nc(-c3cc(-c4cc(Cl)cnc4Cl)c(F)cc3F)n(-c3ccncn3)c2C1	cell-free assay, inhibitor		1 µM		inhibition	5%
Cc1nc2c(F)cc(-c3nc(Nc4ccc(CNC(=O)CCCCCCC(=O)NO)cc4)ncc3F)cc2n1C(C)C	enzyme activity, inhibitor		1 µM		inhibition	0%
NC(=O)[C@@H](O)C[C@H]1CCc2sc3ncnc(O[C@H]4CC[C@H](N5CCOCC5)CC4)c3c21	enzyme activity, inhibitor		10 µM		inhibition	-2%
CN1CCN(Cc2ccc(-c3ccc(CO[C@H]4CCC[C@@H]4NC(=O)c4cc(-c5cnn(C)c5)cnc4N)cc3)cc2)CC1	enzyme activity, inhibitor		0.1 µM		inhibition	2%
Nc1ncc2c(n1)-c1c([nH]c3ccc(C4=CCOCC4)cc13)CCC2	binding, competition with immobilised ligand		1 µM		remaining binding	88%
CS(=O)(=O)Nc1cccc(-c2csc3cnc(Nc4ccc(N5CCN(CCCCCOc6cccc7c6C(=O)N(C6CCC(=O)NC6=O)C7=O)CC5)cc4)nc23)c1 (stereo not shown)	probe labelling, inhibitor, KiNativ chemoproteomics	MOLT-4	1 µM		inhibition	-20.5%
CNC(=O)C1CCN(c2cc(C)c(F)cc2NC(=O)c2ccc(-c3cc(O)ccc3C)c(C)c2)CC1	binding, competition with immobilised ligand		1 µM		remaining binding	77%
COc1c(Cl)cccc1Nc1c(-c2ccncc2C#C[C@@]2(C)CCCN2C(=O)/C=C/CN(C)C)[nH]c2c1C(=O)NCC2	binding, competition with immobilised ligand		3 µM		remaining binding	80%
Nc1ncc(-c2cc(-c3cnn(CC(F)(F)F)c3)ncc2F)nc1C(=O)NC1CNCC(F)C1 (stereo not shown)	enzyme activity		1 µM	reference: DMSO control	remaining activity	102%
O=C(Cc1ccc(OCc2ccccc2)cc1)NC1(C(=O)O)CCN(C(=O)c2ccc(-c3cccc(Cl)c3)cc2)CC1	enzyme activity, inhibitor		10 µM		activity vs control	78%
O=C(Nc1cc(-c2ccnc3[nH]ccc23)c(Cl)cn1)[C@H]1CCC[C@@H](NC(=O)C(F)(F)F)C1	binding, competition with immobilised ligand		0.1 µM		remaining binding	14%
CC(C)=CC1OC(C)(C)C2C=C3C(=O)C(Cl)=CC(O)C3C3C(O)C4OC4C(=O)C132 (stereo not shown)	cell-free assay, competition with immobilised ligand		10 µM		remaining binding	100%
CN1CC[C@@H](COc2cnc(C#N)cc2-c2ccn3nc(NC(=O)C4CC4)cc3c2)C1	enzyme activity, inhibitor		1 µM		inhibition	-14%
NC(=O)C[C@H]1CCc2sc3ncnc(O[C@H]4CC[C@H](N5CCOCC5)CC4)c3c21	enzyme activity, inhibitor		10 µM		inhibition	0%
COc1cc(Nc2nccc(-c3cnn4nc(OC)ccc34)n2)cc(C(F)(F)F)c1	binding, competition with immobilised ligand		1 µM		remaining binding	92%

Some of these lines once more:
SMILES	assay	system	setting	how to read	endpoint	result
O=C(Nc1cc(-c2ccnc3[nH]ccc23)c(Cl)cn1)[C@H]1CCC[C@@H](NC(=O)C(F)(F)F)C1	binding, competition with immobilised ligand		0.1 µM		remaining binding	14%
CS(=O)(=O)Nc1cccc(-c2csc3cnc(Nc4ccc(N5CCN(CCCCCOc6cccc7c6C(=O)N(C6CCC(=O)NC6=O)C7=O)CC5)cc4)nc23)c1 (stereo not shown)	probe labelling, inhibitor, KiNativ chemoproteomics	MOLT-4	1 µM		inhibition	-20.5%
